Measured values from different studies.
Every numbered part comes from another study and shows a few of its results, in no order.

Block 1
Target: Fragile X messenger ribonucleoprotein 1, C-terminal low-complexity region (Fmr1, Mus musculus, UniProt P35922)
Technique: RNA Bind-n-Seq
Molecule type: RNA
Matrix: in vitro
Tested at: 200 nM
Notes: whole 134-nt RNA, ends assumed
With: 150 mM LiCl
Relative to: input library
Reading: higher = stronger binding
All molecules: 7-deaza-guanosine replaces G
| Oligonucleotide | log2 enrichment |
| --- | --- |
| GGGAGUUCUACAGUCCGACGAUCUAACUUUAGAGGAAGAUCUGAUGGAUAUGGCAGUGGACGUGGAUUUGGGGAUGGCUAUAAUGGGUAUGGAGGAGGACCUGGAGGUGGCAAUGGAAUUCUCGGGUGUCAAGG | 0.501 |
| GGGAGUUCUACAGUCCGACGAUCCCUGUGCUACACAUCGUAUGUACCGAAUCGGGGUUUUUUUGGGGUGGGGAAAAAAAGGGGAAAGUAUUAUGUUACGCCGUUCGGAUCUGCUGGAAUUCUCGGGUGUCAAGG | -1.3 |
| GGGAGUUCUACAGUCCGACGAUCGUCCUGUGCUACACAUCGUAUGUACCGAAUCGGGAAAAAGGGGAAAAAGGGAAAAAGGGAAAGUAUUAUGUUACGCCGUUCGGAUCUGCAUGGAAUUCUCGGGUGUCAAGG | 0.654 |
| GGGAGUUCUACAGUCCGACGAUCCCUGUGCUACACAUCGUAUGUACCGAAUCAAAUUUUUUUAAAUUUUUAAAUUUUUUUAAAAAAGUAUUAUGUUACGCCGUUCGGAUCUGCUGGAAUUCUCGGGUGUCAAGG | -3.08 |
| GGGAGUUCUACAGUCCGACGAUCCUGUGCUACACAUCGUAUGUACCGAAUCGGGGUUUUUUUGGGUUUUUUUGGGUUUUUUUGGGAAAGUAUUAUGUUACGCCGUUCGGAUCUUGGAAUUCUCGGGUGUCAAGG | 0.759 |
| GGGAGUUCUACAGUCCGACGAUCACAAAGCAGGUGGGCAUCUUUGGGAAGUGGGGCAAGGGGGGGAUAGGGAGGGGGGUAACACUUUGGGAACAGGUGGUCCCAGGUCGUUUCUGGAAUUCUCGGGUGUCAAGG | 1.23 |
| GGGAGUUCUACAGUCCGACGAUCAAGUCCUGUGCUACACAUCGUAUGUACCGAAUCGGGUUUUUGGGUUUUUGGGUGGGAAAGUAUUAUGUUACGCCGUUCGGAUCUGCACUUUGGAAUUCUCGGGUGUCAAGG | -1.55 |
| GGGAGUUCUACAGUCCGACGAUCCAAGUCCUGUGCUACACAUCGUAUGUACCGAAUCGGGUUUGGGUGGGUUUUUGGGAAAGUAUUAUGUUACGCCGUUCGGAUCUGCACUUCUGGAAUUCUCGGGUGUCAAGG | -0.238 |

Block 2
Target: Sal-like protein 4, full length isoform B (SALL4, Homo sapiens, UniProt Q9UJQ4-2, residues 1-616)
Technique: universal PBM
Molecule type: double-stranded DNA, one strand shown
Matrix: in vitro
Tested at: not given
Notes: 8-mer, flanks averaged, mean of replicates
Reading: higher = stronger binding
Target sequence (chain): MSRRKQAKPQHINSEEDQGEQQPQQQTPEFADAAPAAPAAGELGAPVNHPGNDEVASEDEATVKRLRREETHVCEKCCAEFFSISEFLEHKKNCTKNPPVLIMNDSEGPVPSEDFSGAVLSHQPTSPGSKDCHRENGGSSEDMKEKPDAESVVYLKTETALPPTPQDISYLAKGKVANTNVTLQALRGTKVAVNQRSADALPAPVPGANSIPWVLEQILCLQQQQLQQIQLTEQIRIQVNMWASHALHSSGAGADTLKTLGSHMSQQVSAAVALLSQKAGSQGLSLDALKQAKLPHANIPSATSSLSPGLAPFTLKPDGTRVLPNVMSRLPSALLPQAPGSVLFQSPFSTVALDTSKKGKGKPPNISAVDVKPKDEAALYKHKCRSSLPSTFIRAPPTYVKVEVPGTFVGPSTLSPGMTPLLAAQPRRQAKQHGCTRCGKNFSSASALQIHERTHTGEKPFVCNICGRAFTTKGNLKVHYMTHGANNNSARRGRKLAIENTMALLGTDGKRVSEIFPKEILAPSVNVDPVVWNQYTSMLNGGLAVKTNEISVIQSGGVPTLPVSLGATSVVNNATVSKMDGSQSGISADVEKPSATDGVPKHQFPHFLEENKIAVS
| Oligonucleotide | E-score |
| --- | --- |
| ATTCACCC | -0.0522 |
| TCAGCACA | 0.0305 |
| AATCGGCC | -0.29 |
| ATACAGAA | 0.136 |
| ACAAATAG | 0.267 |
| CTAGGAGC | -0.268 |
| ACCCCTTC | -0.144 |
| CGTGGACC | -0.338 |
| CTATGACA | 0.122 |
| GATGAGGC | -0.143 |
| AAACCACC | -0.0567 |
| ATCCCATG | -0.0171 |
| AGTCCCGC | -0.195 |
| GCGCTGAA | -0.331 |
| CGACGTAG | -0.0949 |
| AAGGCTTC | -0.099 |
| ACATTGTA | 0.139 |
| AGGGGCAG | -0.236 |
| CATAGTGA | 0.239 |
| GTACTCTA | 0.0347 |
| CGGATTGA | -0.125 |
| CTGAGGTA | -0.00529 |
| CGACCCCA | -0.211 |
| ACTCATGA | 0.185 |

Block 3
Target: RNA binding protein fox-1 homolog 2, RRM domain, GST-SBP tag (RBFOX2, Homo sapiens, UniProt O43251-10, residues 100-194)
Technique: RNA Bind-n-Seq
Molecule type: RNA
Matrix: in vitro
Tested at: 365 nM
Notes: natural RNA segment, single round, ends assumed
Relative to: no-protein control
Reading: higher = stronger binding
Target sequence (chain): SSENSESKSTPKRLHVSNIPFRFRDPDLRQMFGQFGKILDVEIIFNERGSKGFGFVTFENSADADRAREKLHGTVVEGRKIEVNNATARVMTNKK
| Oligonucleotide | RBNS enrichment (R) |
| --- | --- |
| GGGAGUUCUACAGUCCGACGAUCUUCAUUUAUAAUUUACAAAAGUAAAGCAUUUAUUAGUGUCUGAUUUAAGAAUGUAAAGUGAUUCUGUAUCAAUGUAAAUAAGAUGAUCUACUACAAAAGAUAUUUAAAAUUGGAAUUCUCGGGUGCCAA | 0.734 |
| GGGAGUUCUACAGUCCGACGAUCGUUACCAACCUAAAAAUAAAAAAUCCGAACAGCAUACUUGAAGAAUGUAAUACUCAAACUCUCAGUGCUUCCUUAUGGUUUCUAAUAGGAUUUUUUAUUAUUGUUAUUAUUGGAAUUCUCGGGUGCCAA | 0.695 |
| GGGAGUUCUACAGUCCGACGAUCAUGGAGUCAAAGGAGACCAUUUUGGAGCUUUAAGAUUUAACUGCCCUGCUGGAUUUCAGACUUGCAUGGGGCCUUUAGCCACUUCGUUUUGGCCAACUUCUCCCACUUGAUGGAAUUCUCGGGUGCCAA | 0.599 |
| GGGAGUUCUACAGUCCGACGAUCUUGAGCGCUGAAUCGUGUCCCAUGAGAUCAGGCGCCAUCUGUAAAGUCUCCUCUGGAAAUGCCAAUCCAUCCUUCCCCCAGCUGCUUCCUCGGGGAGGCCCCUGCCCCCAUGGAAUUCUCGGGUGCCAA | 0.901 |
| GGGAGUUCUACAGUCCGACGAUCAGUUGGAAUGCUUCUACCCUGGCUUCUAAAUUCAGGCCUGUGGGUAAUCCCAAGUAUACAGGAAAUUGUGGGGUAGGCUGUCUCUCGUGAAUUGAGUUCUGCUGGGGCUAUGGAAUUCUCGGGUGCCAA | 0.411 |
| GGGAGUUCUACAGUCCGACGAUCGGUCCCUGUAGGGCAAAAUUCCCAGGCGCCUUGCUGCAGACAGAGUAAGACAAAAACACCAGGAAGCAGGAUUCCGUGCCCAUCUCUGCAGUUUGGGUUCACAAAAGGGGUGGAAUUCUCGGGUGCCAA | 0.3 |
| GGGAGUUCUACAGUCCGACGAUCCUGGGCUCUGCCUUAAUCUCCUGGACUCCGGAGGACUGAGCCCCCACCGGAGCUGGCUGGGGCUUGGGUCAGGGUGAGGAAUAAAAGGAGCGAGGAAUCAAUGUUUUUAAUGGAAUUCUCGGGUGCCAA | 0.384 |
| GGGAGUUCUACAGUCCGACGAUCAAUUUGAGCCACCAAAAUACACUGCAUUACAGAAAUUGCCACUUGAUUCUGUACUCUUAACCUUUGGCUACUUCACAGACUCCAUUGGCAACACUGUUAUUGAAAAUCAUUGGAAUUCUCGGGUGCCAA | 0.603 |

Block 4
Target: RING finger protein unkempt homolog, zinc fingers 1-6, GST-SBP tag (UNK, Homo sapiens, UniProt Q9C0B0, residues 30-357)
UniProt Q9C0B0, sequence (30-357, looked up): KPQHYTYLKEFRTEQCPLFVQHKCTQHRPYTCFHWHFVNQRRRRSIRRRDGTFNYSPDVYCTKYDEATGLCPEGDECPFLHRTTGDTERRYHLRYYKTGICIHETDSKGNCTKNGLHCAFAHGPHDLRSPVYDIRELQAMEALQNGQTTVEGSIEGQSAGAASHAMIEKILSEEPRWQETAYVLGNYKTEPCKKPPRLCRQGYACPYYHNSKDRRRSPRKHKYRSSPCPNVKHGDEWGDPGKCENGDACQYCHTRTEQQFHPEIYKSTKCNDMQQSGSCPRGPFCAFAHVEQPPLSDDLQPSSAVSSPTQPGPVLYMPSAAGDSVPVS
Technique: RNA Bind-n-Seq
Molecule type: RNA
Matrix: in vitro
Tested at: not given
Notes: RNA with constant flanks, human-mouse chimeric sites, ends assumed
Relative to: input RNA pool
Reading: higher = stronger binding
| Oligonucleotide | bound/input enrichment [ratio] |
| --- | --- |
| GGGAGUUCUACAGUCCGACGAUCGUGUCCUGCUUUCAACUAUCACUGAGGAGGCAUCUCUACUGUUCUGUGAGCAUCAGGACUGUAGCGCUGUGUCACCACAGAUGAGAACAGAAGCAGCCUUUCUGUGGAGGGUGGGAAUGACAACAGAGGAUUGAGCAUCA | 0.127 |
| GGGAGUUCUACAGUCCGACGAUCUUGCCUGAGAACGAGGAUGAGCUGGAGAGCACCAACAGGCGCUACACCAAGAGGGACUGUAGCACUUUCCUCAGAACUAGUGAGACGGGCAUCGUGGACCAGGUCAUGGUCACUCUCAACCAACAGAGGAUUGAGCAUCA | 0.269 |
| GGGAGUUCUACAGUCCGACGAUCCCUCCCCCGGGCCACCCACCCCUCCCGGCUCCCCGCCAGAGCAAGGUUUUCUUCUUAUUUCAUAGCAAAUAAGAAAAAUGUUCUACGCACAUUUUGUCCUCAGUAAACGAGGGCCUCUGGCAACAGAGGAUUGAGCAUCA | 0.642 |
| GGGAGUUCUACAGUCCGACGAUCAGCACAACACCAGCUAAGCUAAGAAAUCCUUGUACAAGUGAACAAAACUGCACCAGCCCAUUUAGCUACAAAAAUGUGCUUAGUCUUACUAAUAAAGGAGAGUUUUUCAAUGAACUUGUUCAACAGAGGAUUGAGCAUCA | 0.868 |
| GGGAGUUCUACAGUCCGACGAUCGGAAGUACAAUGAUGGAGAUUGAUGGUGAUAAAGGCAAGCAGGGCGGGCCCACCUACUACAUAGACACCAAUGCCCUGCGUGUUCCGAGGGAGAACAUGGAGGCCAUCUCACCACUCAAGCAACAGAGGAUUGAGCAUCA | 0.218 |
| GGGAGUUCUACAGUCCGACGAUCACUCAGAGAUCCACCUCCCAAAGUGCUCUGGAGCUCUGUGUGGCCACCACACCUAACUUGAUGGAUAUAUAUUUUUUUUAAUAUGAAUCUUCCUGUUCUUCAUCCAGAGAAAGAUUUGUUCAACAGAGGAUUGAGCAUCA | 0.877 |
| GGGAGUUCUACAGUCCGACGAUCACUCAGAGAUUAUAUUCAAUUGAAGUGGGGAGUAAAGGUGUGGCCACCACACCUAACUUGAUGGAUAUAUAUUUUUUUUAAUAUGAAUCUUCCUGUUCGUCCAGGGAAGAAAGAUUUGUUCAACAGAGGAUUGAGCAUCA | 0.694 |
| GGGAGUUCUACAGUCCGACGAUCUCUUAACUUAUUCAUUUAACUUAUUUUUAUAGCUAGAUAAAUAUUGUUAGUCUUAGACAAUAGCUCACAUUUUUUGAGAAGCAUGCCCUCCCUAUCCAUUGGGCCCAUAACAUGACCCAGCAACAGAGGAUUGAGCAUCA | 12.9 |

Mixed results
| Substance | tested on | test | system | conditions | how to read | endpoint | result |
| --- | --- | --- | --- | --- | --- | --- | --- |
| GSPAKKLFTSTGL | Saccharomyces cerevisiae | binding, competitive growth deep sequencing | peptide, cyclin D3-Cln2 fusion strain | concentration not given, peptide library 1 | direction not given | growth enrichment score | -0.273 |
| PhoQ, residues 284 288 289 292 302 303 SNSSNI | PhoP, residues 12 14 15 18 19 SMASL (Escherichia coli, UniProt P23836) | Sort-seq, refers to: YFP reporter | E. coli | PhoQ-PhoP variant library, with: 10 µM Mg2+ | relative to: high Mg2+ state, higher = stronger signaling | fold induction | 4.76 |
| MDASRQLMLNEEQ | Saccharomyces cerevisiae | binding, competitive growth deep sequencing | peptide, cyclin E1-Cln2 fusion strain | concentration not given, Cln2 score subtracted | direction not given | growth enrichment score | 0.0878 |
| FVPQRKLEVSTED | Saccharomyces cerevisiae | binding, competitive growth deep sequencing | peptide, cyclin D3-Cln2 fusion strain | concentration not given, RxL motif peptides | direction not given | growth enrichment score | 0.175 |
| EDLLKELQKQLEE | Saccharomyces cerevisiae | binding, competitive growth deep sequencing | peptide, cyclin E1-Cln2 fusion strain | concentration not given, Cln2 score subtracted | direction not given | growth enrichment score | 0.0265 |

Some of these lines once more (block 2):
| Oligonucleotide | E-score |
| --- | --- |
| TCAGCACA | 0.0305 |
| ATACAGAA | 0.136 |
| AATCGGCC | -0.29 |
| ACCCCTTC | -0.144 |
| ACTCATGA | 0.185 |
